Measured values of several laboratories.
A part holds a random share of what one study measured. Values joined by “and” are separate records of one study, mostly repeats; a detail may differ.
Sequence of UniProt Q15139 (whole entry, looked up): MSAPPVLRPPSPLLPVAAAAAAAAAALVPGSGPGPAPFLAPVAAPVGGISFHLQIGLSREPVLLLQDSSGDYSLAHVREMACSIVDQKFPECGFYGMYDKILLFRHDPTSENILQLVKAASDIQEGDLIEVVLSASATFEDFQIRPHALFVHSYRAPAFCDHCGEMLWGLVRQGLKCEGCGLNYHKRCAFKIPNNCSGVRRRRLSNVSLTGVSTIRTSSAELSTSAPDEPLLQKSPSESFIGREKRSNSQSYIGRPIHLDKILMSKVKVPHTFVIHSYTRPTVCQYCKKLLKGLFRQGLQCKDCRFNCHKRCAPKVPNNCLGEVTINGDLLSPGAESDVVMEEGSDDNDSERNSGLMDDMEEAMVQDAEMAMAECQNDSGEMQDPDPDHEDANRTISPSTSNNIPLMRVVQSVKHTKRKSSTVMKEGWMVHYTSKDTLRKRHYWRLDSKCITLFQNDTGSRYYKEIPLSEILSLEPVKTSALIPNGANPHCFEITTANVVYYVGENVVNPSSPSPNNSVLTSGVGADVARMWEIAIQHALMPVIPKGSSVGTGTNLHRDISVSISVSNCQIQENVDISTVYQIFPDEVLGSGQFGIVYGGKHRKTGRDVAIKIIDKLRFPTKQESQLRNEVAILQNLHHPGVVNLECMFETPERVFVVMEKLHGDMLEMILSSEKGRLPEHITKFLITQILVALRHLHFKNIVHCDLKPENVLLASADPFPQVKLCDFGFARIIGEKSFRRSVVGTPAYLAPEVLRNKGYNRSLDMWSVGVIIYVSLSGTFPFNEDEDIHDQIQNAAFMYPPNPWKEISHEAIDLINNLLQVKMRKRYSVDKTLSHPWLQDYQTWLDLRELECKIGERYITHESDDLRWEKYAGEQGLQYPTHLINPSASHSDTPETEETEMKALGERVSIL
Sequence of UniProt Q9HCP0 (whole entry, looked up): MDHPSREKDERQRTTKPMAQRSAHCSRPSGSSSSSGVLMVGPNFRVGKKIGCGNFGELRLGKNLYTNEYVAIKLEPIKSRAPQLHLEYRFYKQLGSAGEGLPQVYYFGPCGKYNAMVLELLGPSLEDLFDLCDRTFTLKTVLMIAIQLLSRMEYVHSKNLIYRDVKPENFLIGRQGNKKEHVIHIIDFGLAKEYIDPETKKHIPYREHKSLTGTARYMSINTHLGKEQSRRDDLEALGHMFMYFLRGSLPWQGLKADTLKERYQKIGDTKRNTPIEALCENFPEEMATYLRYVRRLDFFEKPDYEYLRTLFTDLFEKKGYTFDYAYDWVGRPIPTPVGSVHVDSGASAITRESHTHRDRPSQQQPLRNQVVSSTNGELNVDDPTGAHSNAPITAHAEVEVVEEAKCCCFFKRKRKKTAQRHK
Sequence of UniProt Q14289 (whole entry, looked up): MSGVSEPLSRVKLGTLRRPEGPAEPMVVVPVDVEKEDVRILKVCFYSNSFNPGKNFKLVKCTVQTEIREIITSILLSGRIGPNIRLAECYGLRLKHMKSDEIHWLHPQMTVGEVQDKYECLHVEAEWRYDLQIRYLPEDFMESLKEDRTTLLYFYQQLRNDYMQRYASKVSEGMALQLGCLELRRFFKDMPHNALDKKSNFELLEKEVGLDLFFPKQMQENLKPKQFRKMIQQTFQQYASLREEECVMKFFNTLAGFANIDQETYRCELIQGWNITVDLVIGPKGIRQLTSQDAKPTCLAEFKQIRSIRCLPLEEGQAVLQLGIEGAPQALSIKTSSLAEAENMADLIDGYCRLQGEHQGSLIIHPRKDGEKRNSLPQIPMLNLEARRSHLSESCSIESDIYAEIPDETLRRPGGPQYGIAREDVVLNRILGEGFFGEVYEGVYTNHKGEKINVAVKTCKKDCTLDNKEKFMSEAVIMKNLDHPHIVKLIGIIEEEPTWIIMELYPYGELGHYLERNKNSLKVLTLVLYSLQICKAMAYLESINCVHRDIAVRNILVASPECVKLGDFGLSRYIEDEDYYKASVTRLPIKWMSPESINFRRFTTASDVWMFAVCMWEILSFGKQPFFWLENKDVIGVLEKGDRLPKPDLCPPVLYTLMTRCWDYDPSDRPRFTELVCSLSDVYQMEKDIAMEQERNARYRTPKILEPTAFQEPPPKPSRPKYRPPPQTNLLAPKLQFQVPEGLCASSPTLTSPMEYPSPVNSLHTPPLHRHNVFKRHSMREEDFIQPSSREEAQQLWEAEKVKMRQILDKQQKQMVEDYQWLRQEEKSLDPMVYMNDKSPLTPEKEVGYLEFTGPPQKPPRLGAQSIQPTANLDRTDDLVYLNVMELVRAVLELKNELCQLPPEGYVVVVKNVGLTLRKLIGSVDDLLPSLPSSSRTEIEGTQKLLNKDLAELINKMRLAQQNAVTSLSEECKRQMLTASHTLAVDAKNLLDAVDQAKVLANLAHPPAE
Sequence of UniProt P29323 (whole entry, looked up): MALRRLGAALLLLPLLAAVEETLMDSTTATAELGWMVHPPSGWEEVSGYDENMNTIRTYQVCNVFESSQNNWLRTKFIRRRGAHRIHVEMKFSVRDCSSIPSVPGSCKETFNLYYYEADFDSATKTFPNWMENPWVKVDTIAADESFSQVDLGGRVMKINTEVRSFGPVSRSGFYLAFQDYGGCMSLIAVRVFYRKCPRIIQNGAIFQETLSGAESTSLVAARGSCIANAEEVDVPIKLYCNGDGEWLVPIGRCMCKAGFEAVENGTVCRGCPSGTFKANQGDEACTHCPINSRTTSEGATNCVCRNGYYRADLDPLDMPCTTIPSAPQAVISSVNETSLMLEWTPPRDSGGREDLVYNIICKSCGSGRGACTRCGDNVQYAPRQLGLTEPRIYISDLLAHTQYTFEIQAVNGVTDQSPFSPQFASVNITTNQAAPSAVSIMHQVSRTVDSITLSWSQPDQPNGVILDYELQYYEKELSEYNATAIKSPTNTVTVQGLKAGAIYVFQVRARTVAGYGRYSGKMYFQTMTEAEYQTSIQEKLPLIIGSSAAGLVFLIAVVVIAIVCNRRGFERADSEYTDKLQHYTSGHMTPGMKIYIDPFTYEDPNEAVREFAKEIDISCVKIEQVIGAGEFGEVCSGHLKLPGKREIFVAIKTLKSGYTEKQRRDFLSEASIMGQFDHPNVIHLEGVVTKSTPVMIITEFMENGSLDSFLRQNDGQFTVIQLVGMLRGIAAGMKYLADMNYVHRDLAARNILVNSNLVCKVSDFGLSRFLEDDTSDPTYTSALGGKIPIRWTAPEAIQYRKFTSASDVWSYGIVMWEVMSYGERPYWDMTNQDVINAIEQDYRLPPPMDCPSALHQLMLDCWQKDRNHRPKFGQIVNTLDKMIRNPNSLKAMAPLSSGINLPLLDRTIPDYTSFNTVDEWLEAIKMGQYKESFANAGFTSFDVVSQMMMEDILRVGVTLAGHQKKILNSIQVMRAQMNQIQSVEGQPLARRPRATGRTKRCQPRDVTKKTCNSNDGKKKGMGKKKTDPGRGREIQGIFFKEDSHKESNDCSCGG
Sequence of UniProt P42685 (whole entry, looked up): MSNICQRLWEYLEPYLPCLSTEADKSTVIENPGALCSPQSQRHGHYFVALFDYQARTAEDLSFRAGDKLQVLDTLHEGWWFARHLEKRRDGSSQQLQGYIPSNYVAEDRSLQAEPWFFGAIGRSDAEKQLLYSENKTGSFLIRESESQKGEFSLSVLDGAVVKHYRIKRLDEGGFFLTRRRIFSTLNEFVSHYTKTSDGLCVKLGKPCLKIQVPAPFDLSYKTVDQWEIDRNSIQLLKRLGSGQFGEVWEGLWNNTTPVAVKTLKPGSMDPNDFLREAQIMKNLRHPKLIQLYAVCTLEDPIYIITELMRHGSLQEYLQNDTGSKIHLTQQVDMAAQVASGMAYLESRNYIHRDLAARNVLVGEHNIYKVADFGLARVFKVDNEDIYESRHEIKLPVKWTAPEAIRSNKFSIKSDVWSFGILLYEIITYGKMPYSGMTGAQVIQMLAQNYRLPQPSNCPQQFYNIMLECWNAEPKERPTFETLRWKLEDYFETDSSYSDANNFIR
Sequence of UniProt O60285 (whole entry, looked up): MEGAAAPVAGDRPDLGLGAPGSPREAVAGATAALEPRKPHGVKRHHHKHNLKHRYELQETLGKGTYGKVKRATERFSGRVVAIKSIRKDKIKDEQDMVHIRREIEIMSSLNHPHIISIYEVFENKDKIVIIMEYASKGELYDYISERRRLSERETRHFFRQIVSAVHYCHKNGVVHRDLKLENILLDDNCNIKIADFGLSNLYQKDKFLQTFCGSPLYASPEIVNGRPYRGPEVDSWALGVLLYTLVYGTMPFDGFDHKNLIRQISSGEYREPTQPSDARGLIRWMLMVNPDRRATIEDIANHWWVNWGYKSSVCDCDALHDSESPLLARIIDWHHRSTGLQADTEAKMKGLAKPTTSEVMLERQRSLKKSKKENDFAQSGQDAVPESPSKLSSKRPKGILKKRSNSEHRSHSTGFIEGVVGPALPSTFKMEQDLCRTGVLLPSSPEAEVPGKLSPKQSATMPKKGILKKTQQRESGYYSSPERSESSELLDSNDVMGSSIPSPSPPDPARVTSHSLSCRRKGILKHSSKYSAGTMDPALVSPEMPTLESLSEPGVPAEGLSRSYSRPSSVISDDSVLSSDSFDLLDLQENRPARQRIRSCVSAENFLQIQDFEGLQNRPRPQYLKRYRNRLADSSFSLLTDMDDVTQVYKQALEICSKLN
Sequence of UniProt Q96NX5 (whole entry, looked up): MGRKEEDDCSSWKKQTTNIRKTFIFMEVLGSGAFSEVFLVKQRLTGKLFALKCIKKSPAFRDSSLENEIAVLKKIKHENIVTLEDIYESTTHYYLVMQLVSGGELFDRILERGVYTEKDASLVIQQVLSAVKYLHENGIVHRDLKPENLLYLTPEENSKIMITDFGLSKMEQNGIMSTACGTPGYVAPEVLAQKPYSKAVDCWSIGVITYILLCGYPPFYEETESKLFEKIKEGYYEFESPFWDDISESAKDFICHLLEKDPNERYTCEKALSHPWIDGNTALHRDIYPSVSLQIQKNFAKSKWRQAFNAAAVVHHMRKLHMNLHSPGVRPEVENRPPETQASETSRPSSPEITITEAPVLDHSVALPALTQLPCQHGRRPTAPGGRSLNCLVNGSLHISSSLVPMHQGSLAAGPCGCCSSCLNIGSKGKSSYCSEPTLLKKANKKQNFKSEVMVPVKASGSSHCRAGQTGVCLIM

Study 1 — tested at: 0.1 µM
Structure (SMILES): O=C(NCCCC1CCCCC1)c1ccc(CNC(=O)c2cnn(-c3ccccc3)c2C(F)(F)F)cc1
| target | test | remaining binding [%] |
| --- | --- | --- |
| FLT3 (Homo sapiens, UniProt P36888, D835Y) | cell-free assay, competition with immobilised ligand | 100 |
| Non-receptor tyrosine-protein kinase TYK2, JH1 (TYK2, Homo sapiens, UniProt P29597) | cell-free assay, competition with immobilised ligand | 100 |
| FYN (Homo sapiens, UniProt P06241) | cell-free assay, competition with immobilised ligand | 86 |
| FRK (Homo sapiens, UniProt P42685) | cell-free assay, competition with immobilised ligand | 77 |
| PLK1 (Homo sapiens, UniProt P53350) | cell-free assay, competition with immobilised ligand | 93 |
| MARK1 (Homo sapiens, UniProt Q9P0L2) | cell-free assay, competition with immobilised ligand | 100 |
| PIK3CA (Homo sapiens, UniProt P42336, Q546K) | cell-free assay, competition with immobilised ligand | 67 |
| PIK3C2B (Homo sapiens, UniProt O00750) | cell-free assay, competition with immobilised ligand | 86 |
| ERBB4 (Homo sapiens, UniProt Q15303) | cell-free assay, competition with immobilised ligand | 100 |
| BMP2K (Homo sapiens, UniProt Q9NSY1) | cell-free assay, competition with immobilised ligand | 100 |
| NUAK1 (Homo sapiens, UniProt O60285) | cell-free assay, competition with immobilised ligand | 100 |
| BMPR1A (Homo sapiens, UniProt P36894) | binding, competition with immobilised ligand | 100 |
| CSNK1G1 (Homo sapiens, UniProt Q9HCP0) | cell-free assay, competition with immobilised ligand | 100 |
| PHKG1 (Homo sapiens, UniProt Q16816) | cell-free assay, competition with immobilised ligand | 100 |
| EPHB2 (Homo sapiens, UniProt P29323) | cell-free assay, competition with immobilised ligand | 100 |
| EPHB4 (Homo sapiens, UniProt P54760) | cell-free assay, competition with immobilised ligand | 95 |
| STK36 (Homo sapiens, UniProt Q9NRP7) | cell-free assay, competition with immobilised ligand | 100 |
| TYRO3 (Homo sapiens, UniProt Q06418) | cell-free assay, competition with immobilised ligand | 100 |
| PRKD1 (Homo sapiens, UniProt Q15139) | cell-free assay, competition with immobilised ligand | 100 |
| DSTYK (Homo sapiens, UniProt Q6XUX3) | cell-free assay, competition with immobilised ligand | 100 |
| CDK19 (Homo sapiens, UniProt Q9BWU1) | competition binding | 96 |

Study 2 — cell line: mouse MPNST tumor cells; method: high-content immunofluorescence imaging; item: nuclear SOX9; tested at: 10 µM; time: 12 h; notes: mean of 2 replicates; relative to: DMSO control; direction: higher = more nuclear SOX9
| Structure (SMILES) | nuclear SOX9 intensity |
| --- | --- |
| CCCCN(CCCC)CCCOC(=O)c1ccc(N)cc1 | 100 % of DMSO |
| CNc1cc(OC)c(C(=O)NC2CCN(Cc3ccccc3)C2C)cc1Cl (centres unmarked) | 108 % of DMSO |
| Cc1cccc(S(=O)(=O)N(C)[C@H](C)CCN2CCC(C)CC2)c1 | 122 % of DMSO |
| CCCCCS(=O)(=O)CCCCCCCCCCn1c(-c2ccc(O)cc2)c(C)c2cc(O)ccc21 | 146 % of DMSO |
| c1cc(CN2CCCNCCNCCCNCC2)ccc1CN1CCCNCCNCCCNCC1 | 105 % of DMSO |
| O=CN1CCC(C(=O)NCCN2CCC(=C3c4ccccc4C=Cc4ccccc43)CC2)CC1 | 111 % of DMSO |
| COc1ccc(OC)c(C2C(C#N)=C(N)Oc3n[nH]c(-c4ccc5ccccc5c4)c32)c1 (centres unmarked) | 100 % of DMSO |
| O=C1CN(/N=C/c2ccc(-c3ccc([N+](=O)[O-])cc3)o2)C(=O)N1 | 100 % of DMSO and 86.6 % of DMSO |

Study 3 — SMILES: Nc1ncnc2c1cnn2-c1ccccc1; effect on: enzyme activity; mode: inhibitor; tested at: 0.5 µM; relative to: control
| target | remaining activity |
| --- | --- |
| BRSK1 (Homo sapiens, UniProt Q8TDC3) | 90.2% |
| PRKD1 (Homo sapiens, UniProt Q15139) | 98.1% |
| NTRK3 (Homo sapiens, UniProt Q16288) | 93.6% |
| RET (Homo sapiens, UniProt P07949) | 98.2% |
| CAMK1G (Homo sapiens, UniProt Q96NX5) | 102% |
| MAP3K8 (Homo sapiens, UniProt P41279) | 98.6% |
| PTK2B (Homo sapiens, UniProt Q14289) | 108% |
| DYRK4 (Homo sapiens, UniProt Q9NR20) | 98.4% |

Study 4 — cell line: A-375; tested at: 100 µM; time: 36 h
| SMILES | viability [%] |
| --- | --- |
| CNCC[C@@H](Oc1ccccc1C)c1ccccc1 | 16.1 |
| O=C(O)[C@H](O)[C@@H](O)[C@H](O)[C@H](O)CO | 99.8 |
| Cc1c(O)cccc1C(=O)N[C@@H](CSc1ccccc1)[C@H](O)CN1C[C@H]2CCCC[C@H]2C[C@H]1C(=O)NC(C)(C)C | 9.63 |
| O=C1c2c(O)ccc(O)c2C(=O)c2c(NCCNCCO)ccc(NCCNCCO)c21 | -7.54 |
| Fc1ccc([C@@H]2CCNC[C@H]2COc2ccc3c(c2)OCO3)cc1 | 1.39 |

Study 5 — species: mouse; medium: microsomes or S9; tested at: 2 µM; time: 0.5 h
| SMILES | remaining compound [%] |
| --- | --- |
| CNC[C@@H]1C[C@H](F)CN1C(=O)Cc1n[nH]c2ccccc12 | > 100 |
| CCC(c1ccccn1)n1cc(-c2nn(C)c3cccc(Cl)c23)nn1 (centres unmarked) | 5.78 |
| COc1cc(OC)c(C(=O)Nc2sc(C(C)C)cc2C(=O)OC(C)C)cc1OC | 78.5 |
| Cc1nc(C)n(C(C)CNC(=O)CN2C(=O)COc3ccc(C(C)(C)C)cc32)n1 (centres unmarked) | 93.1 |
| CCOC(=O)c1c(C)nn(-c2ncnc3c2c(C)c(C)n3CCc2ccccc2)c1N | 88.6 |
